# Measurements of several laboratories.
# Compare with care: the assays were run in different laboratories. “And” joins repeats or separate records; there may be more than shown. ± marks the error that the study gave.
# GLP1R: Glucagon-like peptide 1 receptor (GLP1R, Homo sapiens, UniProt P43220)
# Sequence of UniProt Q16774 (whole entry, unmodified, looked up): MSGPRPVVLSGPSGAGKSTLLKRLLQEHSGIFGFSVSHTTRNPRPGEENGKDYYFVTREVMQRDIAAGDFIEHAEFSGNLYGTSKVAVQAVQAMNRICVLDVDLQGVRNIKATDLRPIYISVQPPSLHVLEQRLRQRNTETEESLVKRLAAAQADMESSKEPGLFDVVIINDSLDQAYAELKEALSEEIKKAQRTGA
# Sequence of UniProt P49915 (whole entry, looked up): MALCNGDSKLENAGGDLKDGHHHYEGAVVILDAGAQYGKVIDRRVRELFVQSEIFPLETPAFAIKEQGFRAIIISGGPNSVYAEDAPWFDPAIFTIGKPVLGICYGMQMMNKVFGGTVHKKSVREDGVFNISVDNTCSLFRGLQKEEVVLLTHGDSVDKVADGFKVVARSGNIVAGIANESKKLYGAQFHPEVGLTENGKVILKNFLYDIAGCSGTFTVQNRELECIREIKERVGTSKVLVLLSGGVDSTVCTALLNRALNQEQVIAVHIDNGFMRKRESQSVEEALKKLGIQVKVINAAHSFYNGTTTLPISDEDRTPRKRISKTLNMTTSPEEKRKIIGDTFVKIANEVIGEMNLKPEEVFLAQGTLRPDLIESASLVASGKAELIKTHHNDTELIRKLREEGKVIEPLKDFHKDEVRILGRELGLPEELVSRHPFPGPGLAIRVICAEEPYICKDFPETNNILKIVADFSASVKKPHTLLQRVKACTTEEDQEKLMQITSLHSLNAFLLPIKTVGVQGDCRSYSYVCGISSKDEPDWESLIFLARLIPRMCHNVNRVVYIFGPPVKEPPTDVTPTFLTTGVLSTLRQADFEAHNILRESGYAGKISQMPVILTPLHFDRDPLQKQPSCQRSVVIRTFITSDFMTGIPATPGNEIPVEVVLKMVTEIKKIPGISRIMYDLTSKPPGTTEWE
# Sequence of UniProt Q12791 (whole entry, looked up): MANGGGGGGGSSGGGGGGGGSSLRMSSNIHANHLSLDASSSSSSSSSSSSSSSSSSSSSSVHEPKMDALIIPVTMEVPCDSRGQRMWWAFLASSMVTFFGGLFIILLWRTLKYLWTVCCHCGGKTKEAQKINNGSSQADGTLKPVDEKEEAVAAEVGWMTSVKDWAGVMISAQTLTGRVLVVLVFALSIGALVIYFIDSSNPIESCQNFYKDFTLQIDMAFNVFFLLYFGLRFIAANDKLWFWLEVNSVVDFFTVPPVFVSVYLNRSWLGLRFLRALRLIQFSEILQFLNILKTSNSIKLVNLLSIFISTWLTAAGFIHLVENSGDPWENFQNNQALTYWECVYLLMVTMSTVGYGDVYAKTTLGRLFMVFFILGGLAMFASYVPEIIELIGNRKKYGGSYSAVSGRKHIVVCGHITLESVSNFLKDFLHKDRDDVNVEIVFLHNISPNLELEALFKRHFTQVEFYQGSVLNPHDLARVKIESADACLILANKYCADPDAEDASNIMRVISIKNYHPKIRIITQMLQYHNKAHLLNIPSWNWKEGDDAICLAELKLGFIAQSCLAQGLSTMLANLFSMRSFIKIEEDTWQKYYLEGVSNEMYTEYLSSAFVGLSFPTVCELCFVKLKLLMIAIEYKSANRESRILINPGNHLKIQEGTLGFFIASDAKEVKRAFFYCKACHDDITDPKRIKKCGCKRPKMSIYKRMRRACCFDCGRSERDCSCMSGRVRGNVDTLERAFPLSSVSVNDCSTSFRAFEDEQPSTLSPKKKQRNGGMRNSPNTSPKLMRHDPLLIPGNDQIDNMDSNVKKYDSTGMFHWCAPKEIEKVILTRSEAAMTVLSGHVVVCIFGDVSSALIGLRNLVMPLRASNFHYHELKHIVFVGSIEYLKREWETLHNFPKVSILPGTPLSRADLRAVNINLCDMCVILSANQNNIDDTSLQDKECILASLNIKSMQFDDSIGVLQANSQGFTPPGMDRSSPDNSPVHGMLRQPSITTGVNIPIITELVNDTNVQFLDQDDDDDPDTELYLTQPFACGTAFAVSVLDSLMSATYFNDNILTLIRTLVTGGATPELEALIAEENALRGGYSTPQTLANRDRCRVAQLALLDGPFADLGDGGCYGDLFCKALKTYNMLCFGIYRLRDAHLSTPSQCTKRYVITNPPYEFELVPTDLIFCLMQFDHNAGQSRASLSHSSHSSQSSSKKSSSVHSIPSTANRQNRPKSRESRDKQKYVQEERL
# Sequence of UniProt Q13224 (whole entry, unmodified, looked up): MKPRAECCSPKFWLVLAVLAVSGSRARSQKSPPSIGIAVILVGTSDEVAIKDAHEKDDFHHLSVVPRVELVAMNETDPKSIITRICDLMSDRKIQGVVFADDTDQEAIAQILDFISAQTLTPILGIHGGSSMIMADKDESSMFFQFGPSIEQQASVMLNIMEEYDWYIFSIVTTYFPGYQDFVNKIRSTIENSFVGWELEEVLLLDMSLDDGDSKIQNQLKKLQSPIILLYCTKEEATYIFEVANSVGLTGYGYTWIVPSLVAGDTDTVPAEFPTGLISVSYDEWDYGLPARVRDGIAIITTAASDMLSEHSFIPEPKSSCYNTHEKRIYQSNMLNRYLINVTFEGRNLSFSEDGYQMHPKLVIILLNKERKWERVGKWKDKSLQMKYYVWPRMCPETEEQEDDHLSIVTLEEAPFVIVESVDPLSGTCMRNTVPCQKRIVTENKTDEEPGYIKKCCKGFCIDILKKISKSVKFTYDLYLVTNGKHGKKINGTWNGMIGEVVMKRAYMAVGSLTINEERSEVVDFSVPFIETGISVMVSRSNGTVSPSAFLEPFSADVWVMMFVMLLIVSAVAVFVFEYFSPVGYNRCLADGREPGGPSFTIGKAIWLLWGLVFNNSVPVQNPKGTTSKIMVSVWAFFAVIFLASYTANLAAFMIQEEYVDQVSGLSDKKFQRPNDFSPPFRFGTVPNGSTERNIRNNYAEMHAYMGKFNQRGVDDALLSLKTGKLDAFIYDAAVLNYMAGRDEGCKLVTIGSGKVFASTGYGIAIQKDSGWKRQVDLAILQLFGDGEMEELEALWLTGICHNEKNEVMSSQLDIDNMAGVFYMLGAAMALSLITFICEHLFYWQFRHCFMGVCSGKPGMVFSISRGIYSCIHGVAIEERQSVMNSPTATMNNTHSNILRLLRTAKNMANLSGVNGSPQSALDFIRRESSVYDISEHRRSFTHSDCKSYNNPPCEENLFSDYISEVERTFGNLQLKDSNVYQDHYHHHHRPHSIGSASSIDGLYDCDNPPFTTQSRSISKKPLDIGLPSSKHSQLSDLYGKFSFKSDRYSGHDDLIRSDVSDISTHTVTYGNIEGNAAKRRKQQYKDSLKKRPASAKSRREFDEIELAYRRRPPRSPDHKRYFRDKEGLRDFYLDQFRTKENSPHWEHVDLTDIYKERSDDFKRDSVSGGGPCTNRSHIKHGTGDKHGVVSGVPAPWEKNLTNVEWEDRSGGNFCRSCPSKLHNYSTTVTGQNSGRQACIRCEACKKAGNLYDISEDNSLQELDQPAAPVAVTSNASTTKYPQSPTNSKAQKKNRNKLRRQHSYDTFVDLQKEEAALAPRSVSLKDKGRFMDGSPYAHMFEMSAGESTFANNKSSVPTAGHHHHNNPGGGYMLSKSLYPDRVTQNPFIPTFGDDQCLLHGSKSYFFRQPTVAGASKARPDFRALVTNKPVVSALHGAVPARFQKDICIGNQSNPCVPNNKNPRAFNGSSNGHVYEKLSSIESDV
# Sequence of UniProt P00441 (whole entry, unmodified, looked up): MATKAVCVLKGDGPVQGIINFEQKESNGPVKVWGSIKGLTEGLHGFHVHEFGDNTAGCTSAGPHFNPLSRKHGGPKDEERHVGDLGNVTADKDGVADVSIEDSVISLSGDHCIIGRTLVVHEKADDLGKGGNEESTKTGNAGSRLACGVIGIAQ
# Sequence of UniProt P04629 (whole entry, unmodified, looked up): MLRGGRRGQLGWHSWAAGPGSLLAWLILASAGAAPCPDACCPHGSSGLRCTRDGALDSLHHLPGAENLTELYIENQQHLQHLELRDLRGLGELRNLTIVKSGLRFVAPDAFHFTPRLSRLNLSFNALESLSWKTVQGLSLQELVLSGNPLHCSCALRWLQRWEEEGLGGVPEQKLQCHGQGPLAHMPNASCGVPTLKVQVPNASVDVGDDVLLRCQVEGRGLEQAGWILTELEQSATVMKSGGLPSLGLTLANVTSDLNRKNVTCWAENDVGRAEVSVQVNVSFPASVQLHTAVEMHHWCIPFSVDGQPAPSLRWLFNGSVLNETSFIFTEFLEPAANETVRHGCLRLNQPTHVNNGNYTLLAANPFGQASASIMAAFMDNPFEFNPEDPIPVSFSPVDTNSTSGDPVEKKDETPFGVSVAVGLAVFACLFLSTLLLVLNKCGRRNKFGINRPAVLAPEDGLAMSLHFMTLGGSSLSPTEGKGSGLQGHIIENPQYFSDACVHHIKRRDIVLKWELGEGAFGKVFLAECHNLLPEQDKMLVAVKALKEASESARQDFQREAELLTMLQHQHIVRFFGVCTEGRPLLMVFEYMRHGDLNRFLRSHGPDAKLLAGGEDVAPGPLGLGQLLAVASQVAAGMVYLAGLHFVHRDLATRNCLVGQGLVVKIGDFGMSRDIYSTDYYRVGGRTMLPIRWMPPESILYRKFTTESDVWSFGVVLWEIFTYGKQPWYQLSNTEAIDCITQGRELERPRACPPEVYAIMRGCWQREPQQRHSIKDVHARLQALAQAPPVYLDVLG
# Sequence of UniProt P23204 (whole entry, unmodified, looked up): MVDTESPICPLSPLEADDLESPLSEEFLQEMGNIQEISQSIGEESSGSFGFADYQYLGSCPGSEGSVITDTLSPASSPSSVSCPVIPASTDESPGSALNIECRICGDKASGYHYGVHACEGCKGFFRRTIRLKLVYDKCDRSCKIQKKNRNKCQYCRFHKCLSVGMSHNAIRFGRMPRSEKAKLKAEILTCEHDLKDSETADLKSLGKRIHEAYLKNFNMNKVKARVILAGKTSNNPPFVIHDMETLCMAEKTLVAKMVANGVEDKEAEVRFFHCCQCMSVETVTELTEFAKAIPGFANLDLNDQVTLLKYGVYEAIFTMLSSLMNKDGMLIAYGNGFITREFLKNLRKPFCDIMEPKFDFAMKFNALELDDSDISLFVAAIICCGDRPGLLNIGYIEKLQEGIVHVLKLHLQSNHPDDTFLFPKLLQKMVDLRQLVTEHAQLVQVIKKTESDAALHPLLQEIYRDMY
Structure (SMILES),tested on,assay,test system,setting,scale,endpoint,value
CN(C)C(=O)C(CCN1CCC(O)(c2ccc(Cl)cc2)CC1)(c1ccccc1)c1ccccc1,"Calcium-activated potassium channel subunit alpha-1, with LRRC26 γ1 subunit (KCNMA1, Homo sapiens, UniProt Q12791)","BK current, inside-out patch clamp",excised membrane patch,"30 µM, γ1 coexpressed, individual fits, together with: nominally 0 Ca2+ cytosolic",,effective gating valence,1.53 ± 0.38 elementary charges
COc1cc(Nc2ncc3c(n2)-c2ccc(Cl)cc2C(c2c(F)cccc2OC)=NC3)ccc1C(=O)O,ABL1 Y253F,kinase activity,,1 µM,,remaining activity,36%
CC[C@H](C)[C@H](NC(=O)[C@H](Cc1ccccc1)NC(=O)[C@H](CCC(=O)O)NC(=O)[C@H](CCCNC(=N)N)NC(=O)[C@H](C)NC(=O)[C@H](C)NC(=O)[C@H](CCC(N)=O)NC(=O)[C@H](CCC(=O)O)NC(=O)[C@H](CCC(=O)O)NC(=O)[C@H](CC(C)C)NC(=O)[C@H](Cc1ccc(O)cc1)NC(=O)[C@H](CO)NC(=O)[C@H](CO)NC(=O)[C@@H](NC(=O)[C@H](CC(=O)O)NC(=O)[C@H](CO)NC(=O)[C@@H](NC(=O)[C@H](Cc1ccccc1)NC(=O)[C@@H](NC(=O)CNC(=O)[C@H](CCC(=O)O)NC(=O)[C@H](C)NC(=O)CCc1cnc[nH]1)[C@@H](C)O)[C@@H](C)O)C(C)C)C(=O)N[C@@H](C)C(=O)N[C@@H](Cc1c[nH]c2ccccc12)C(=O)N[C@@H](CC(C)C)C(=O)N[C@H](C(=O)N[C@@H](CCCCNc1c(NCCCCCN(O)C(=O)CCC(=O)NCCCCCN(O)C(=O)CCC(=O)NCCCCCN(O)C(C)=O)c(=O)c1=O)C(=O)NCC(=O)N[C@@H](CCCNC(=N)N)C(=O)N[C@@H](CCCCNC(=O)COCCOCCNC(=O)COCCOCCNC(=O)CC[C@H](NC(=O)CCCCCCCCCCCCCCCCC(=O)O)C(=O)O)C(=O)NCC(=O)NCC(=O)N[C@@H](CO)C(=O)N[C@@H](CCCCNc1c(NCCCCCN(O)C(=O)CCC(=O)NCCCCCN(O)C(=O)CCC(=O)NCCCCCN(O)C(C)=O)c(=O)c1=O)C(=O)O)C(C)C,GLP1R,"agonist, CRE luciferase reporter",BHK cells,"metal-free DFO conjugate, together with: 0% HSA",reference: parent peptide,fold potency loss,14.2
C[C@H](CCC(C)(C)O)[C@H]1CC[C@H]2[C@@H]3CC=C4C[C@@](C)(O)CC[C@]4(C)[C@H]3CC[C@]12C,"Glutamate NMDA receptor; GRIN1/GRIN2B (GRIN1/GRIN2B, Homo sapiens, UniProt Q05586+Q13224, V564A)","positive allosteric modulator, two-electrode voltage clamp",Xenopus oocytes expressing GluN2B-V564A,"10 µM, 0.02% cremophor, together with: 100 µM glutamate and glycine",reference: without compound,current response,342 ± 25%
Nc1nc2c(ncn2[C@@H]2O[C@H](COP(=O)(O)O)[C@@H](O)[C@H]2O)c(=O)[nH]1,"GUK1 (Homo sapiens, UniProt Q16774, E72A)","enzyme activity, NADH-coupled",,15.62 µM,,reaction rate,0.371 s⁻¹ and 0.197 s⁻¹ and -0.654 s⁻¹
O=c1nc(SCc2cc(F)cc(C(F)(F)F)c2)nc(SCc2ccc3nc(OCCN4CCOCC4)ccc3c2)[nH]1,"DNA topoisomerase 2-alpha (TOP2A, Homo sapiens, UniProt P11388)",decatenation,,125 µM,,mean decatenated DNA,0%
Cn1cc(-c2ccc(-c3cncc(Cl)c3N3CCC4(CCNC4=O)CC3)cc2)cn1,COLO 205,"gene expression, microarray, refers to: SCUBE1 mRNA",,"concentration not given, 6 h",reference: untreated cells,log2 fold change,-2.55
[O-][S+]1CCCCS1 (stereo not drawn),"Superoxide dismutase [Cu-Zn] (SOD1, Homo sapiens, UniProt P00441, G94A)",LC-MS,brain homogenate,"10 µM, 1 h, 37 °C",,SOD1 monomer fraction,98.1%
CC(C)C[C@H](NC(=O)C[C@H](O)[C@H](CC(C)C)NC(=O)[C@H](Cc1c[nH]cn1)NC(=O)CNC(=O)[C@@H](NC(=O)[C@H](C)NC(=O)[C@H](Cc1c[nH]c2ccccc12)NC(=O)[C@H](CCC(N)=O)NC(=O)[C@@H](Cc1ccccc1)NC(=O)COCCOCCNC(=O)CCC(C(=O)O)N1CCN(CC(=O)O)CCN(CC(=O)O)CCN(CC(=O)O)CC1)C(C)C)C(N)=O (stereo partly drawn) [lutetium-177 labelled],,,"BALB/c nu/nu mice, female, liver","50 pmol, 1 h, together with: PA 300 µg",,tissue uptake,0.5 ± 0.1 %ID/g
C#Cc1cc(-c2cc(Nc3nc(N[C@@H](C)c4ccc(F)cn4)ncc3Cl)n[nH]2)ccc1C=O,"High affinity nerve growth factor receptor (NTRK1, Homo sapiens, UniProt P04629, G667S)","enzyme activity, inhibitor",,0.2 µM,,inhibition,101%
CC[C@H](C)[C@H](NC(=O)[C@H](Cc1ccccc1)NC(=O)[C@H](CCC(=O)O)NC(=O)[C@H](CCCNC(=N)N)NC(=O)[C@H](C)NC(=O)[C@H](C)NC(=O)[C@H](CCC(N)=O)NC(=O)[C@H](CCC(=O)O)NC(=O)[C@H](CCC(=O)O)NC(=O)[C@H](CC(C)C)NC(=O)[C@H](Cc1ccc(O)cc1)NC(=O)[C@H](CO)NC(=O)[C@H](CO)NC(=O)[C@@H](NC(=O)[C@H](CC(=O)O)NC(=O)[C@H](CO)NC(=O)[C@@H](NC(=O)[C@H](Cc1ccccc1)NC(=O)[C@@H](NC(=O)CNC(=O)[C@H](CCC(=O)O)NC(=O)[C@H](C)NC(=O)CCc1cnc[nH]1)[C@@H](C)O)[C@@H](C)O)C(C)C)C(=O)N[C@@H](C)C(=O)N[C@@H](Cc1c[nH]c2ccccc12)C(=O)N[C@@H](CC(C)C)C(=O)N[C@H](C(=O)N[C@@H](CCCNC(=N)N)C(=O)NCC(=O)N[C@@H](CCCNC(=N)N)C(=O)N[C@@H](CCCCNC(=O)COCCOCCNC(=O)COCCOCCNC(=O)CC[C@H](NC(=O)CCCCCCCCCCCCCCCCC(=O)O)C(=O)O)C(=O)NCC(=O)NCC(=O)N[C@@H](CO)C(=O)N[C@@H](CCCCNc1c(NCCCCCN(O)C(=O)CCC(=O)NCCCCCN(O)C(=O)CCC(=O)NCCCCCN(O)C(C)=O)c(=O)c1=O)C(=O)NCC(=O)NCC(=O)N[C@@H](CO)C(=O)N[C@@H](CCCCNc1c(NCCCCCN(O)C(=O)CCC(=O)NCCCCCN(O)C(=O)CCC(=O)NCCCCCN(O)C(C)=O)c(=O)c1=O)C(=O)O)C(C)C,GLP1R,"agonist, CRE luciferase reporter",BHK cells,"metal-free DFO conjugate, together with: 0% HSA",reference: parent peptide,fold potency loss,5.8
CN(CCOc1ccc(CC2SC(=O)NC2=O)cc1)c1ccccn1 (stereo not drawn),"Peroxisome proliferator-activated receptor alpha (Ppara, Mus musculus, UniProt P23204, F272I)",far-UV circular dichroism,,concentration not given,,secondary structure change,no effect
C(/C=C/c1sc2c3ccccc3ccc2[n+]1CCCc1ccccc1)=C1/Sc2c(ccc3ccccc23)N1CCCc1ccccc1.[I-],"Histone-arginine methyltransferase CARM1 (CARM1, Homo sapiens, UniProt Q86X55)","inhibitor, filter binding",,together with: histone H3.3 substrate,,Hill coefficient,1.79
O=C(Cc1cccnc1)Nc1ccc(C2CCCCC2)cc1,,,cynomolgus liver microsomes,1 µM,,hepatic clearance,28 mL/min/kg
O=C(COP(=O)(O)O)[C@@H](O)[C@H](O)[C@H](O)COP(=O)(O)O,"GMP synthase [glutamine-hydrolyzing] (Homo sapiens, UniProt P49915)","thermal proteome profiling, refers to: GMPS",HepG2 cell lysate,"concentration not given, 57 over 37 °C",reference: compound over control,thermal stability ratio,0.421 and 0.458 and 0.583
N#CCC(=O)Nc1ccc(C2CCCCC2)cc1,,hepatocyte stability,cryopreserved human hepatocytes,1 µM,,hepatic clearance,19 mL/min/kg
CO/N=C(\C(=O)N[C@@H]1C(=O)N2C(C(=O)O)=C(COC(N)=O)CS[C@H]12)c1ccco1,beta-lactamase RAD-1 (Riemerella anatipestifer),"substrate, continuous spectrophotometric hydrolysis",,30 °C,,Km,297 ± 19 µM
CC[C@H](C)[C@H](NC(=O)[C@H](Cc1ccccc1)NC(=O)[C@H](CCC(=O)O)NC(=O)[C@H](CCCNC(=N)N)NC(=O)[C@H](C)NC(=O)[C@H](C)NC(=O)[C@H](CCC(N)=O)NC(=O)[C@H](CCC(=O)O)NC(=O)[C@H](CCC(=O)O)NC(=O)[C@H](CC(C)C)NC(=O)[C@H](Cc1ccc(O)cc1)NC(=O)[C@H](CO)NC(=O)[C@H](CO)NC(=O)[C@H](CCCCNc1c(NCCCCCN(O)C(=O)CCC(=O)NCCCCCN(O)C(=O)CCC(=O)NCCCCCN(O)C(C)=O)c(=O)c1=O)NC(=O)[C@H](CC(=O)O)NC(=O)[C@H](CO)NC(=O)[C@@H](NC(=O)[C@H](Cc1ccccc1)NC(=O)[C@@H](NC(=O)CNC(=O)[C@H](CCC(=O)O)NC(=O)[C@H](C)NC(=O)CCc1cnc[nH]1)[C@@H](C)O)[C@@H](C)O)C(=O)N[C@@H](C)C(=O)N[C@@H](Cc1c[nH]c2ccccc12)C(=O)N[C@@H](CC(C)C)C(=O)N[C@H](C(=O)N[C@@H](CCCNC(=N)N)C(=O)NCC(=O)N[C@@H](CCCNC(=N)N)C(=O)N[C@@H](CCCCNC(=O)COCCOCCNC(=O)COCCOCCNC(=O)CC[C@H](NC(=O)CCCCCCCCCCCCCCCCC(=O)O)C(=O)O)C(=O)NCC(=O)NCC(=O)N[C@@H](CO)C(=O)N[C@@H](CCCCNc1c(NCCCCCN(O)C(=O)CCC(=O)NCCCCCN(O)C(=O)CCC(=O)NCCCCCN(O)C(C)=O)c(=O)c1=O)C(=O)O)C(C)C,GLP1R,"agonist, CRE luciferase reporter",BHK cells,"Zr-loaded DFO conjugate, together with: 1% HSA",reference: parent peptide,fold potency loss,6.4
N=C(N)c1ncn([C@@H]2O[C@H](CO)[C@@H](O)[C@H]2O)n1,"uncharacterized protein (Trichomonas vaginalis, UniProt A2EYV3)",inhibitor,,,,ligand efficiency,0.59
COc1cc(/C=C/c2ccc(O)cc2)cc(OC)c1,"O-methyltransferase (Sorghum bicolor, UniProt A0A1B6PFV1)",biolayer interferometry,,together with: saturating SAH,,cooperativity factor σ,35.3
Nc1c(S(=O)(=O)[O-])cc(Nc2cccc(S(=O)(=O)CCOS(=O)(=O)[O-])c2)c2c1C(=O)c1ccccc1C2=O.[Na+].[Na+],alternative ancestral dye-decolorizing peroxidase,"peroxidase activity, substrate, steady-state kinetics",,"25 °C, pH 3 ABTS, 4 others",,kcat,8.2 s⁻¹

# A few entries again:
Structure (SMILES),tested on,assay,test system,setting,scale,endpoint,value
Nc1nc2c(ncn2[C@@H]2O[C@H](COP(=O)(O)O)[C@@H](O)[C@H]2O)c(=O)[nH]1,"GUK1 (Homo sapiens, UniProt Q16774, E72A)","enzyme activity, NADH-coupled",,15.62 µM,,reaction rate,0.371 s⁻¹ and 0.197 s⁻¹ and -0.654 s⁻¹
C(/C=C/c1sc2c3ccccc3ccc2[n+]1CCCc1ccccc1)=C1/Sc2c(ccc3ccccc23)N1CCCc1ccccc1.[I-],"Histone-arginine methyltransferase CARM1 (CARM1, Homo sapiens, UniProt Q86X55)","inhibitor, filter binding",,together with: histone H3.3 substrate,,Hill coefficient,1.79
